# Assay results pooled from the literature.
# Each line is one published result; not all experiments were run side by side. ± marks the error that the study gave.
# MPO: Myeloperoxidase (MPO, Homo sapiens, UniProt P05164)
# UniProt P05164, sequence (whole entry, looked up): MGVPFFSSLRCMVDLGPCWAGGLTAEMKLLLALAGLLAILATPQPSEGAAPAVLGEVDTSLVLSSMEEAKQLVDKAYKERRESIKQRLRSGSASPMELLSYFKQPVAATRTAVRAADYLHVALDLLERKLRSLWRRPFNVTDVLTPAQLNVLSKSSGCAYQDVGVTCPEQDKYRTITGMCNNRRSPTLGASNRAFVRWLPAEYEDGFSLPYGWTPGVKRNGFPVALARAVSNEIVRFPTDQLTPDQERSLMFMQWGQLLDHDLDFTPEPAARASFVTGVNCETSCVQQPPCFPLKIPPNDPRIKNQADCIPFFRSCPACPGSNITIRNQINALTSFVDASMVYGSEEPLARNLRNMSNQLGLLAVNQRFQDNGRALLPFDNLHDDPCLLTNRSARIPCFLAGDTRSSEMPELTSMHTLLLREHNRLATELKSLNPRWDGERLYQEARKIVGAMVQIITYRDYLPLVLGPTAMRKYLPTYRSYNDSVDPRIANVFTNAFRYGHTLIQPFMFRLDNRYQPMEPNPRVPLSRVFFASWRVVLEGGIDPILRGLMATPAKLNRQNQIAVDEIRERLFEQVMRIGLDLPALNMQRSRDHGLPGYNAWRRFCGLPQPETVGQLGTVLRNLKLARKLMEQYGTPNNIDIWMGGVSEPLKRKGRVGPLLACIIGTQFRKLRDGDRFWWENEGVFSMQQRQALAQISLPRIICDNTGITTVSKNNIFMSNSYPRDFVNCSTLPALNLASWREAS
# CSNK1E: Casein kinase I isoform epsilon (CSNK1E, Homo sapiens, UniProt P49674)
# UniProt P49674, sequence (whole entry, looked up): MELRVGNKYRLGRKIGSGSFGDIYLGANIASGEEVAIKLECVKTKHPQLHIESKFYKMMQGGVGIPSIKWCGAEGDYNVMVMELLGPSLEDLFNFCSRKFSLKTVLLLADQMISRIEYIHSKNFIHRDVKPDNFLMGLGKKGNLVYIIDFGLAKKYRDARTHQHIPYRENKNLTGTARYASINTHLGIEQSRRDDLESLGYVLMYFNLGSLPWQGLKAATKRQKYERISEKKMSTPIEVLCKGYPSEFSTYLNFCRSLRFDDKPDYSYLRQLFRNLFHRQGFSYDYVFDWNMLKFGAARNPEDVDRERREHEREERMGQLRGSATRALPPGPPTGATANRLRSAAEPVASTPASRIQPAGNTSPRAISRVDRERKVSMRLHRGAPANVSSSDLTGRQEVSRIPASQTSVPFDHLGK
# P2RX7: P2X purinoceptor 7 (P2RX7, Homo sapiens, UniProt Q99572)
# UniProt Q99572, sequence (whole entry, unmodified, looked up): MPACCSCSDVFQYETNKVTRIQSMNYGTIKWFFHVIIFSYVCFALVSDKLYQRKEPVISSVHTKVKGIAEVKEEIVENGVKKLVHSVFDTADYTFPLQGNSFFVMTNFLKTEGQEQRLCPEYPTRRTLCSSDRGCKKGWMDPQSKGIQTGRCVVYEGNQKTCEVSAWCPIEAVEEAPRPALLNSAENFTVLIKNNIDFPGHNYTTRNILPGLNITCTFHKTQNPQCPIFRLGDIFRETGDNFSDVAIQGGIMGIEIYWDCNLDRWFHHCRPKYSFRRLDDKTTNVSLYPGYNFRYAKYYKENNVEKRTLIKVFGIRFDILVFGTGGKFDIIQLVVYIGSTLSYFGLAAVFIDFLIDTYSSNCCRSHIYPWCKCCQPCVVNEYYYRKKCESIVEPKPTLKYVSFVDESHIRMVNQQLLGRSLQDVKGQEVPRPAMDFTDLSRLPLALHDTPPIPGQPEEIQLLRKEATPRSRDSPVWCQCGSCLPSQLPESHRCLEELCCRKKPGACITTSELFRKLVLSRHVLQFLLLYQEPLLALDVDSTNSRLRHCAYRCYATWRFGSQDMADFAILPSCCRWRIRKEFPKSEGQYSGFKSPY
# CTSL: Procathepsin L (CTSL, Homo sapiens, UniProt P07711)
# UniProt O75676, sequence (whole entry, looked up): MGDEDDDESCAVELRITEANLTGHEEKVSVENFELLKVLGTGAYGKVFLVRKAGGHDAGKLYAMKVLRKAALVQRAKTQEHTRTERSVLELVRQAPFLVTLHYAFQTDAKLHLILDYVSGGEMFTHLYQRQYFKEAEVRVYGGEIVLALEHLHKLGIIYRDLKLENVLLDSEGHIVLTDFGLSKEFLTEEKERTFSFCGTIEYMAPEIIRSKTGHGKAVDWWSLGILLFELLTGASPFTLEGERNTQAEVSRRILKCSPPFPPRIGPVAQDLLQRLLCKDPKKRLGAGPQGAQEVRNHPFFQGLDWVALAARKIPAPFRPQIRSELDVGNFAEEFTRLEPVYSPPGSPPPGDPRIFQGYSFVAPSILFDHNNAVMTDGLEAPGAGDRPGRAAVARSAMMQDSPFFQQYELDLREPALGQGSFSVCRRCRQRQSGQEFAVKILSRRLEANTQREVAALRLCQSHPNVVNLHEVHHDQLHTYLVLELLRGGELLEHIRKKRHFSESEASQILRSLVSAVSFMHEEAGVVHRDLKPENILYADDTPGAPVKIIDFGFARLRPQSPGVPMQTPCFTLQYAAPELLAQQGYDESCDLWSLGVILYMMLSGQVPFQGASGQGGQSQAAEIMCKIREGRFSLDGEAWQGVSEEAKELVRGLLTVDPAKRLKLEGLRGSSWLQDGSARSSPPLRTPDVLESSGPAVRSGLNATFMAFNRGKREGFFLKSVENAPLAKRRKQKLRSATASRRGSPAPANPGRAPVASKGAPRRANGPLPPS
# UniProt P07711, sequence (whole entry, looked up): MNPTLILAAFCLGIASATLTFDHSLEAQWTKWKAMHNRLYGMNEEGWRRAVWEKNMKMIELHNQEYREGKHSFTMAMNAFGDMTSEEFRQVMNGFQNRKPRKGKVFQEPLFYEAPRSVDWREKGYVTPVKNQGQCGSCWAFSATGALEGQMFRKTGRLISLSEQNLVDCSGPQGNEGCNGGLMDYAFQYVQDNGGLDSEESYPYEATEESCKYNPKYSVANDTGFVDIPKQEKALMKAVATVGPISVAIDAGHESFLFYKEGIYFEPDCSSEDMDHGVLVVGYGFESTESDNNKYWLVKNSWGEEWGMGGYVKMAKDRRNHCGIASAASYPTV
# UniProt P45983, sequence (whole entry, looked up): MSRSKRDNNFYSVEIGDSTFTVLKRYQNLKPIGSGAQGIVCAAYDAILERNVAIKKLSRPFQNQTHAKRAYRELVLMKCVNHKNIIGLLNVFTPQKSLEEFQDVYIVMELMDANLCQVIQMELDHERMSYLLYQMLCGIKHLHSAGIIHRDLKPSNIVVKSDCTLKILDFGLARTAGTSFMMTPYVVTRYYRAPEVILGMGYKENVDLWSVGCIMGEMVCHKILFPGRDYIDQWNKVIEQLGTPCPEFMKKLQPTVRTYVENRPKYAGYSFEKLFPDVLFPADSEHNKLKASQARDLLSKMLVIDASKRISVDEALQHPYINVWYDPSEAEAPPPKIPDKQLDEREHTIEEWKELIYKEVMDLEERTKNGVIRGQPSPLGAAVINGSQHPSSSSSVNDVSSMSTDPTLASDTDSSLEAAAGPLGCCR
# UniProt Q52WX2, sequence (whole entry, looked up): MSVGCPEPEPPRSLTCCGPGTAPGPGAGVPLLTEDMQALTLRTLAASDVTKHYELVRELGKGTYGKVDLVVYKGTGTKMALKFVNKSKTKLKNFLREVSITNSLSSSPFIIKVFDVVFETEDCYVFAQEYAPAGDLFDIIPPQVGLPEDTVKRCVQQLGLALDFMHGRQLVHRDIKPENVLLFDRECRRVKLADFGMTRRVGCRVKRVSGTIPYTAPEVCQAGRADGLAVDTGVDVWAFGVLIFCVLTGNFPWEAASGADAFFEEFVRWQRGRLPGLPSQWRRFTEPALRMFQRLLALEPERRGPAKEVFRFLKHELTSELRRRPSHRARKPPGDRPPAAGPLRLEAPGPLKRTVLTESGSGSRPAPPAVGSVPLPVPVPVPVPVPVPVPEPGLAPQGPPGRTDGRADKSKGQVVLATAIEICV
# UniProt Q99759, sequence (whole entry, looked up): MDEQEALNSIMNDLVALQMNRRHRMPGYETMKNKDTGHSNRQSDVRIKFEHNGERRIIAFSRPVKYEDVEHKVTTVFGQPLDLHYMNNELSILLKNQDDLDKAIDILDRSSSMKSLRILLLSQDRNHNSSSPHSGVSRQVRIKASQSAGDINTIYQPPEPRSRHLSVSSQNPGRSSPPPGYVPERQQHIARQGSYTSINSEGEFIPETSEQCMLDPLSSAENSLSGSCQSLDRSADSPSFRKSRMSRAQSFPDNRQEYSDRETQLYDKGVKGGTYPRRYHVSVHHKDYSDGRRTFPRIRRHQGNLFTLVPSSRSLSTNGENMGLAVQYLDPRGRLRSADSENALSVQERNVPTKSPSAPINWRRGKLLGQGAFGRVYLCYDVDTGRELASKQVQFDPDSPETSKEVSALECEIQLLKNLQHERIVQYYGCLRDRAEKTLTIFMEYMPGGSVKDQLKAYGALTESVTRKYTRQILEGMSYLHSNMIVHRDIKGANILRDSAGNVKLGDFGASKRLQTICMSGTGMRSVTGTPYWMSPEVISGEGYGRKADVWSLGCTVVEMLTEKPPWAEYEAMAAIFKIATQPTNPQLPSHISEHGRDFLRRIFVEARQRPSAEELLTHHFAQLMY
Structure (SMILES),target,test,test system,setting,scale,remaining activity
O=C(NC1CCC1)c1ccc2nc(-c3cccc(NS(=O)(=O)NCCN4CCCCC4)c3)cn2c1,"Wee1-like protein kinase 2 (WEE2, Homo sapiens, UniProt P0C1S8)",enzyme activity,,10 µM,,100%
COc1cc(N2CCN(C)CC2)ccc1Nc1nc(N)n(C(=O)NCc2c(Cl)cccc2Cl)n1,"Ribosomal protein S6 kinase alpha-4, C-terminal kinase domain (RPS6KA4, Homo sapiens, UniProt O75676)",enzyme activity,,10 µM,reference: control,2.1%
NC/C(=C\F)COc1cccc(Cn2c(=S)[nH]c(=O)c3[nH]cnc32)c1,MPO,"LDL lipid peroxidation, inhibitor, item: cholesteryl ester hydroperoxide",,0.0556 µM,reference: control,20.6%
CNc1ncc2c(/C=C/C(=O)N3CCC(OC)CC3)nn(Cc3cccc(C(F)(F)F)c3)c2n1,"Eukaryotic translation initiation factor 2-alpha kinase 1 (EIF2AK1, Homo sapiens, UniProt Q9BQI3)","kinase activity, inhibitor",,1 µM,reference: untreated control,105%
C1=C/COCc2cc(ccc2OCCN2CCCC2)Nc2nccc(n2)-c2cccc(c2)COC/1,"Epidermal growth factor receptor (EGFR, Homo sapiens, UniProt P00533, L858R/T790M)",,,concentration not given,reference: untreated control,15%
Cc1cc(NC(=O)c2cccc(NC(=O)/C=C/CN(C)C)c2)ccc1Nc1nccc(-c2cccnc2)n1,"Mitogen-activated protein kinase 8 (MAPK8, Homo sapiens, UniProt P45983)","enzyme activity, inhibitor",,"2.79e-05 µM, 18 h, unit not given, added: GSH 10 mM pre-incubation",reference: vehicle,1.03
Cc1cc(Nc2cc(N3CCN(C)CC3)nc(Sc3ccc(NC(=O)C4CC4)cc3)n2)[nH]n1,"Cyclin-dependent kinase 5, with p25 (CDK5, Homo sapiens, UniProt Q00535)","kinase activity, KinaseProfiler",,"0.03 µM, species human",reference: control,104%
COc1cc(-c2cncc3c2CN(C)Cc2cc(N4CCNCC4)ccc2-3)cc(OC)c1OC,CSNK1E,kinase activity,,"1 µM, human enzyme, added: ATP 10 µM",reference: DMSO control,119%
C=CC[C@@H]1c2ccc(OC)c(OC)c2CN2CCc3cc4c(cc3[C@H]12)OCO4,P2RX7,"ATP-evoked current, inhibitor, whole-cell patch clamp",HEK293 transfected,0.01 µM,,99.9%
CC(C)OCCn1c(=S)[nH]c(=O)c2[nH]ccc21,MPO,chlorination activity,,"0.156 µM, 0.1 h, added: iodide, TMB",,96.3%
COc1cc(Nc2ncc3c(n2)-c2ccc(Cl)cc2C(c2c(F)cccc2OC)=NC3)ccc1C(=O)O,FGFR2,kinase activity,,1 µM,,10%
COc1ccc2cc3[n+](cc2c1OC)CCc1cc2c(cc1-3)OCO2,P2RX7,"ATP-evoked current, inhibitor, whole-cell patch clamp",HEK293 transfected,10 µM,,60.2%
C=CC(=O)N1CCC([C@@H]2CCNc3c(C(N)=O)c(-c4ccc(Oc5ccccc5)cc4)nn32)CC1,CSNK1E,"kinase activity, inhibitor, HotSpot radiometric",,"100 nM, added: ATP 10 µM",,108 ± 1.1%
O=C(O)c1ccc(Nc2ncc3c(n2)-c2ccc(Cl)cc2C(c2c(F)cccc2F)=NC3)cc1,SAPK4(h),kinase activity,,1 µM,,87%
Cc1ccc(C[C@H](NC(=O)OC(C)(C)C)C(=O)NC/C=C/S(=O)(=O)c2ccccc2)cc1,CTSL,inhibitor,,"5 µM, 60 min, added: Z-Phe-Arg-pNA",reference: uninhibited control,6%
COc1cc(N2CCN(C)CC2)ccc1Nc1nc(N)n(C(=S)NCc2c(Cl)cccc2Cl)n1,"Serine/threonine-protein kinase SBK1 (SBK1, Homo sapiens, UniProt Q52WX2)",enzyme activity,,10 µM,reference: control,0.15%
COc1cc(F)ccc1-c1ncnc(Nc2cccc(C[S@](C)(=N)=O)c2)n1,"Ephrin type-A receptor 2 (EPHA2, Homo sapiens, UniProt P29317)",kinase activity,,"10 µM, added: 10 µM ATP",,41%
CC#CC(=O)N1CCC[C@H]1c1nc(-c2ccc(C(=O)Nc3ccccn3)cc2)c2c(N)nccn12,CSNK1E,"kinase activity, inhibitor, HotSpot radiometric",,"100 nM, added: ATP 10 µM",,106 ± 2.4%
C=CC(=O)N1CCC[C@@H](n2nc(-c3ccc(Oc4ccccc4)cc3)c3c(N)ncnc32)C1,"Protein kinase C alpha type (PRKCA, Homo sapiens, UniProt P17252)",,,0.1 µM,,143%
CC(C)(C)c1nc(-c2cccc(NS(=O)(=O)c3c(F)cccc3F)c2F)c(-c2ccnc(N)n2)s1,"Cell division cycle 7-related protein kinase, with DBF4 (CDC7, Homo sapiens, UniProt O00311)","kinase activity, radiometric 33PanQinase",,1 µM,reference: DMSO,92%
C=CC(=O)N1CCC[C@@H](n2nc(-c3ccc(Oc4ccccc4)cc3)c3c(N)ncnc32)C1,"Ribosomal protein S6 kinase alpha-4 (RPS6KA4, Homo sapiens, UniProt O75676)","kinase activity, inhibitor, HotSpot radiometric",,"100 nM, added: ATP 10 µM",,78.4 ± 1.4%
Nc1ncnc2c1ncn2C1OC(CSCCNCc2cccc(-c3ccccc3)c2)C(O)C1O (stereo not drawn),"mRNA (2'-O-methyladenosine-N(6)-)-methyltransferase (PCIF1, Homo sapiens, UniProt Q9H4Z3)",,,10 µM,,95.5%
CC(C)=CCC(O)C1=CC(=O)c2c(O)ccc(O)c2C1=O (stereo not drawn),CTSL,"enzyme activity, inhibitor",,"100 µM, added: Z-FR-AFC",,115%
COc1ccc(F)cc1C(=O)NCc1ccc(-c2nn([C@@H](C)C(F)(F)F)c(N)c2C(N)=O)cc1,"Mitogen-activated protein kinase kinase kinase 3 (MAP3K3, Homo sapiens, UniProt Q99759)","kinase activity, inhibitor, HotSpot radiometric",,"100 nM, added: ATP 10 µM",,81.8 ± 0.2%

# A few entries again:
Structure (SMILES),target,test,test system,setting,scale,remaining activity
COc1cc(F)ccc1-c1ncnc(Nc2cccc(C[S@](C)(=N)=O)c2)n1,"Ephrin type-A receptor 2 (EPHA2, Homo sapiens, UniProt P29317)",kinase activity,,"10 µM, added: 10 µM ATP",,41%
CC#CC(=O)N1CCC[C@H]1c1nc(-c2ccc(C(=O)Nc3ccccn3)cc2)c2c(N)nccn12,CSNK1E,"kinase activity, inhibitor, HotSpot radiometric",,"100 nM, added: ATP 10 µM",,106 ± 2.4%
C=CC(=O)N1CCC[C@@H](n2nc(-c3ccc(Oc4ccccc4)cc3)c3c(N)ncnc32)C1,"Protein kinase C alpha type (PRKCA, Homo sapiens, UniProt P17252)",,,0.1 µM,,143%
CC(C)(C)c1nc(-c2cccc(NS(=O)(=O)c3c(F)cccc3F)c2F)c(-c2ccnc(N)n2)s1,"Cell division cycle 7-related protein kinase, with DBF4 (CDC7, Homo sapiens, UniProt O00311)","kinase activity, radiometric 33PanQinase",,1 µM,reference: DMSO,92%
